Measurements gathered from unrelated publications.
Lines come from different studies, so protocols differ. Numbers after ± are the reported error.
Sctr: Sctr (Rattus norvegicus, UniProt P23811)
Chain of UniProt P23811 (whole entry, looked up): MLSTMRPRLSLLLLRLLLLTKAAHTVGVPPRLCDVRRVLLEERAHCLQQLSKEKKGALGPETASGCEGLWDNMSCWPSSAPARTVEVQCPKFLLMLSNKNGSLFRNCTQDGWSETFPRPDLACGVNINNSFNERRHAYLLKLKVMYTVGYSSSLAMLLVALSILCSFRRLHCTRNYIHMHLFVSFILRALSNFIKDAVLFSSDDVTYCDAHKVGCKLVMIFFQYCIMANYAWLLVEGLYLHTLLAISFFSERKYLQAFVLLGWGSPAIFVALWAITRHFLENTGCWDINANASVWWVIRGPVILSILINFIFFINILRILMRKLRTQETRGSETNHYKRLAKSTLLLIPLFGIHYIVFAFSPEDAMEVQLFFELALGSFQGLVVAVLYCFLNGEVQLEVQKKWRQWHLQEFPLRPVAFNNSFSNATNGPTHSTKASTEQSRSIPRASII
FFAR2: Free fatty acid receptor 2 (FFAR2, Homo sapiens, UniProt O15552)
Chain of UniProt O15552 (whole entry, looked up): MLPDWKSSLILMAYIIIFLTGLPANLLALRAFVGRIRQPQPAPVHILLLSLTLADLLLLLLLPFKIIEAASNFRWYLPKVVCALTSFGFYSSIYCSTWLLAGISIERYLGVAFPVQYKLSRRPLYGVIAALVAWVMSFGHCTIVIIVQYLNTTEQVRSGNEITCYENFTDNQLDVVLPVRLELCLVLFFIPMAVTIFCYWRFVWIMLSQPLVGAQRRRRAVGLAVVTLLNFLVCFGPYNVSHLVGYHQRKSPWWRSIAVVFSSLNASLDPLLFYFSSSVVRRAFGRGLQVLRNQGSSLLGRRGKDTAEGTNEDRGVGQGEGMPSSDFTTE
GRPR: Gastrin-releasing peptide receptor (GRPR, Homo sapiens, UniProt P30550)
Chain of UniProt P30550 (whole entry, looked up): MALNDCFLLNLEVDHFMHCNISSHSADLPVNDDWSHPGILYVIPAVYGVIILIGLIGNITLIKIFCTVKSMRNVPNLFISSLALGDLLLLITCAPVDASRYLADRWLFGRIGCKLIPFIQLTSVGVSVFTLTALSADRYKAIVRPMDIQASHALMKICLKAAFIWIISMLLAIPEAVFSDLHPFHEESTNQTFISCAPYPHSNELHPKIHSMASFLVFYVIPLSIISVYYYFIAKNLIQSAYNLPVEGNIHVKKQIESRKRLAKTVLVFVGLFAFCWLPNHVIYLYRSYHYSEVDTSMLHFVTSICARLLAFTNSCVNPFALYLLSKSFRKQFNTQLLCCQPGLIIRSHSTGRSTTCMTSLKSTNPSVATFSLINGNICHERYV
Chain of UniProt Q8NER1 (whole entry, looked up): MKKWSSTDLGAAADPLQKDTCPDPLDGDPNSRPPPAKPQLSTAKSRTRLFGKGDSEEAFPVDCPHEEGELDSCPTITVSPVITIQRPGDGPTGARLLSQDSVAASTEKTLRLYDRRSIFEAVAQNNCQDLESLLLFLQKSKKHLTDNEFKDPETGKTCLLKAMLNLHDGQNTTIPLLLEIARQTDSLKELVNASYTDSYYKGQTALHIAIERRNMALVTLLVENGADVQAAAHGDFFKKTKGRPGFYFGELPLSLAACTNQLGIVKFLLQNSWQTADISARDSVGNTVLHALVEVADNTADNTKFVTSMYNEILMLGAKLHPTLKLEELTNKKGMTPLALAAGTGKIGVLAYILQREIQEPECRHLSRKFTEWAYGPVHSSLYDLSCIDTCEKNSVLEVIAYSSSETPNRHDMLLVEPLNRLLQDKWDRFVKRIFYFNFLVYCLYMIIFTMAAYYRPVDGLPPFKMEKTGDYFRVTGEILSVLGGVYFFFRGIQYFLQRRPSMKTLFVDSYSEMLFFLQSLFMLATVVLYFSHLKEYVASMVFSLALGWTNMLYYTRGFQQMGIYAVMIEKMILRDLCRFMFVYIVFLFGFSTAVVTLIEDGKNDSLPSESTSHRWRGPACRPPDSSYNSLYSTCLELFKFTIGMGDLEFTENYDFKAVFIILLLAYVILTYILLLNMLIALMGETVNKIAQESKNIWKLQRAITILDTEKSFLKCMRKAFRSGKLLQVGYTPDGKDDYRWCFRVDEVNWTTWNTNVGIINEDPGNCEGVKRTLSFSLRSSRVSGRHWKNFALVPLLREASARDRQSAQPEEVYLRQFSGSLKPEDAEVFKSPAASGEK
Chain of UniProt P17302 (whole entry, looked up): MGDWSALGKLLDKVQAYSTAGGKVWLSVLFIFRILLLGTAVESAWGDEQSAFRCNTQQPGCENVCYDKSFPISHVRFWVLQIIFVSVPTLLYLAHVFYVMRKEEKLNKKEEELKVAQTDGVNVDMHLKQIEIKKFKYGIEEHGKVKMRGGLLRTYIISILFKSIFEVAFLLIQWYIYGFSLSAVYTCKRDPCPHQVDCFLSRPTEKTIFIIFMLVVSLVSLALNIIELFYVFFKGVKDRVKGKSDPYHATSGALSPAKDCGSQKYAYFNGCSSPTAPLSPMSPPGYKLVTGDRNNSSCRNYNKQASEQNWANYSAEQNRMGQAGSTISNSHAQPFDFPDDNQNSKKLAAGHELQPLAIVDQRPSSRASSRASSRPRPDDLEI
Chain of UniProt P54756 (whole entry, looked up): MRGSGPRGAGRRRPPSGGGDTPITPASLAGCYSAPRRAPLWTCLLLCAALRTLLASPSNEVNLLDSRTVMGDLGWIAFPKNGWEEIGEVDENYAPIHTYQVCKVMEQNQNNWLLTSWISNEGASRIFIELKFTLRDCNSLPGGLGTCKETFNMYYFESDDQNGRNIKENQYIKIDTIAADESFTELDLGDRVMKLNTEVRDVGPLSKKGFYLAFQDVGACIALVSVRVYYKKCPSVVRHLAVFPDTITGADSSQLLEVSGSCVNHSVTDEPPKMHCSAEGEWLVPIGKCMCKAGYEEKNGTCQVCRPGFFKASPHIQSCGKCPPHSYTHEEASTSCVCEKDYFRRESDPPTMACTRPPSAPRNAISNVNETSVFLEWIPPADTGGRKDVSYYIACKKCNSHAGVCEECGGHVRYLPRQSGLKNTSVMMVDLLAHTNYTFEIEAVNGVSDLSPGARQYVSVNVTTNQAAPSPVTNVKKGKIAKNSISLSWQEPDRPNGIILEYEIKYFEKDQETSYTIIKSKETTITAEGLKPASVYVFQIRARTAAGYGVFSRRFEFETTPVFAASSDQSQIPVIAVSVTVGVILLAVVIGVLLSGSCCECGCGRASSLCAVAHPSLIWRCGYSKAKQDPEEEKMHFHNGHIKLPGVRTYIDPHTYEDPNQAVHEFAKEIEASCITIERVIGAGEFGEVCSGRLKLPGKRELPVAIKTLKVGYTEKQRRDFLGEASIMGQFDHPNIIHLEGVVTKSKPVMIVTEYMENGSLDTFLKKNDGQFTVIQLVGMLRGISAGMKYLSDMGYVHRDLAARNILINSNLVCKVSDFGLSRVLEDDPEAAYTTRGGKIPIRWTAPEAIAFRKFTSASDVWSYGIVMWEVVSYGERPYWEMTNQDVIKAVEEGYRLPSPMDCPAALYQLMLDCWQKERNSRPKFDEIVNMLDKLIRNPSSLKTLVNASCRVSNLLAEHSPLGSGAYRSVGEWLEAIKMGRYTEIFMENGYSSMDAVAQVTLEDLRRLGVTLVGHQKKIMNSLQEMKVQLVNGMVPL
Chain of UniProt Q60755 (whole entry, looked up): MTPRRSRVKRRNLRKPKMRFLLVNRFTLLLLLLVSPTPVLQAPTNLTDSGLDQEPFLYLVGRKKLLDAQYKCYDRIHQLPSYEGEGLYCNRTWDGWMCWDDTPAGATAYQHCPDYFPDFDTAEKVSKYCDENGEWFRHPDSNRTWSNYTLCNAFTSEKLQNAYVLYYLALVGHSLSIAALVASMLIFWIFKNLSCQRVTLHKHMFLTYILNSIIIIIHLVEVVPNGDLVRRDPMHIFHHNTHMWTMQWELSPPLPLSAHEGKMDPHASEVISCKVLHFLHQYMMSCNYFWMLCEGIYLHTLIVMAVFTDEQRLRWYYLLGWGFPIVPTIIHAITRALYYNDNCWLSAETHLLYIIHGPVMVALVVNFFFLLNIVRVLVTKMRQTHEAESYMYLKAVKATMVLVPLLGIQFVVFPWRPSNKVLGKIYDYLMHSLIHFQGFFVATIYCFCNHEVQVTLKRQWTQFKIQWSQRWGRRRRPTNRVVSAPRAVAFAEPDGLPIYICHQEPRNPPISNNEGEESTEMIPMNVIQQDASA
Chain of UniProt Q1MX30 (whole entry, looked up): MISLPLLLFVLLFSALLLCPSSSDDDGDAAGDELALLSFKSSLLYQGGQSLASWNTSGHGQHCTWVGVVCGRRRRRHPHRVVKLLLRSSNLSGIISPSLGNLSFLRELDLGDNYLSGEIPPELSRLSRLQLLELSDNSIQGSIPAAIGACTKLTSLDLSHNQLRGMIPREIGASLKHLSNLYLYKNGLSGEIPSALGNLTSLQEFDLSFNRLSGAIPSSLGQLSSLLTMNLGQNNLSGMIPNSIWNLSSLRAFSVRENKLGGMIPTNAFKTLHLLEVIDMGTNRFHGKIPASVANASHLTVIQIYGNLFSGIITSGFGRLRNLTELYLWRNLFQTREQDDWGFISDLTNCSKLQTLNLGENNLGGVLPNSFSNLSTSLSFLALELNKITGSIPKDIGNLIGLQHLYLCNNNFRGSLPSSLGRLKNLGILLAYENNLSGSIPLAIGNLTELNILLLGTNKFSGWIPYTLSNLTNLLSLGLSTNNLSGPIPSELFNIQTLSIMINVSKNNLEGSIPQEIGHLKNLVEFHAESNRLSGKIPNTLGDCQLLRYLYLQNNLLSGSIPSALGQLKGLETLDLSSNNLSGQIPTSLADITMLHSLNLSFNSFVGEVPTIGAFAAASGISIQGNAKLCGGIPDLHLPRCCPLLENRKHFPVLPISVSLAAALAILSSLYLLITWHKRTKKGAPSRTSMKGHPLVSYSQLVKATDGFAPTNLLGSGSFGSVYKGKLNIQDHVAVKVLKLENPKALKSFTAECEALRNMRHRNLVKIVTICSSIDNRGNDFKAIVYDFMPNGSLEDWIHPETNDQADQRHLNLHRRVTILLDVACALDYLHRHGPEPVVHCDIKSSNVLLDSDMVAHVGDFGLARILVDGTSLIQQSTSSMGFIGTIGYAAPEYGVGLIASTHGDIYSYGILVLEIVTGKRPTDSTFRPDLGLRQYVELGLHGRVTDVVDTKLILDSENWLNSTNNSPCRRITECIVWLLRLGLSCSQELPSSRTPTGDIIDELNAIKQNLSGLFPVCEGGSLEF

Compound | target | test | system | conditions | how to read | EC50 [nM]
CC[C@H](C)[C@H](NC(=O)[C@H](CCC(=O)O)NC(=O)[C@@H](NC(=O)[C@H](CCC(N)=O)NC(=O)[C@@H](N)CCCCN)[C@@H](C)CC)C(=O)N[C@@H](CCCCN)C(=O)N[C@@H](CCCCN)C(=O)N[C@@H](Cc1ccccc1)C(=O)N[C@@H](CCCCN)C(=O)O | Gap junction alpha-1 protein, C-terminal tail 255-382 (GJA1, Homo sapiens, UniProt P17302) | binding, SPR | – | Cx43 C-terminal tail | – | ~2500
N#Cc1cc(NS(=O)(=O)c2ccccc2OC(F)(F)F)ccc1Cl | Sh (Drosophila melanogaster, UniProt P08510) | conductance-voltage shift, two-electrode voltage clamp | Xenopus oocytes | – | – | 35000
CC[C@H](C)[C@H](NC(=O)CNC(=O)C1CCN(C(=O)[C@H](CO)NC(=O)[C@@H](N)Cc2c[nH]cn2)CC1)C(=O)N[C@@H](Cc1ccccc1)C(=O)N[C@H](C(=O)N[C@@H](CC(=O)O)C(=O)N[C@@H](CO)C(=O)N[C@@H](Cc1ccc(O)cc1)C(=O)N[C@@H](CO)C(=O)N[C@@H](CCCNC(=N)N)C(=O)N[C@@H](Cc1ccc(O)cc1)C(=O)N[C@@H](CCCNC(=N)N)C(=O)N[C@@H](CCCCN)C(=O)NC(C)(C)C(=O)N[C@@H](C)C(=O)N[C@@H](C)C(=O)N[C@H](C(=O)N[C@@H](CCCCN)C(=O)N[C@@H](CCCCN)C(=O)N[C@@H](Cc1ccc(O)cc1)C(=O)N[C@@H](CC(C)C)C(=O)N[C@@H](C)C(=O)N[C@@H](C)C(=O)N[C@H](C(=O)N[C@@H](CC(C)C)C(=O)NC(C)(C)C(=O)N[C@@H](CCCCN)C(=O)N[C@@H](CCCNC(=N)N)C(=O)N[C@@H](Cc1ccc(O)cc1)C(=O)N[C@@H](CCCCN)C(=O)N[C@@H](CCC(N)=O)C(=O)N[C@@H](CCCCN)C(=O)N[C@H](C(=O)N[C@@H](CCCCN)C(=O)N[C@@H](CC(N)=O)C(=O)N[C@H](CCCCN)C(N)=O)C(C)C)C(C)C)C(C)C)[C@@H](C)O | VIPR1 (Homo sapiens, UniProt P32241) | cAMP, agonist, radiometric | – | – | – | > 1000
CC(C)C[C@H](NC(=O)CNC(=O)[C@H](CCC(N)=O)NC(=O)[C@H](C)NC(=O)[C@H](CC(C)C)NC(=O)[C@H](CCCNC(=N)N)NC(=O)[C@H](CCC(N)=O)NC(=O)[C@H](CC(C)C)NC(=O)[C@H](CCCNC(=N)N)NC(=O)[C@H](C)NC(=O)[C@H](CO)NC(=O)[C@H](CC(=O)O)NC(=O)[C@H](CCC(N)=O)NC(=O)[C@H](CC(C)C)NC(=O)[C@H](CCCNC(=N)N)NC(=O)[C@H](CO)NC(=O)[C@H](CC(C)C)NC(=O)[C@H](CCC(=O)O)NC(=O)[C@H](CO)NC(=O)[C@@H](NC(=O)[C@H](Cc1ccccc1)NC(=O)[C@@H](NC(=O)CNC(=O)[C@H](CC(=O)O)NC(=O)[C@H](CO)NC(=O)[C@@H](N)Cc1c[nH]cn1)[C@@H](C)O)[C@@H](C)O)C(=O)N[C@H](C(N)=O)C(C)C | Sctr | cAMP production, agonist | CHO-SecR | 30 min, 37 °C, together with: 1 mM IBMX | – | 33.2 ± 6.2
Fc1ccc(CN2CCC[C@@H](c3nc(-c4ccc(F)c5cn[nH]c45)no3)C2)cn1 | CNR2 (Homo sapiens, UniProt P34972) | cAMP, agonist, luciferase | – | – | – | 96.1
CC(C)C[C@H](NC(=O)CNC(=O)[C@H](CCC(N)=O)NC(=O)[C@H](CC(C)C)NC(=O)[C@H](CC(C)C)NC(=O)[C@H](CCCNC(=N)N)NC(=O)[C@H](C)NC(=O)[C@H](CC(C)C)NC(=O)[C@H](CCCNC(=N)N)NC(=O)[C@H](C)NC(=O)[C@H](CO)NC(=O)[C@H](CC(=O)O)NC(=O)[C@H](CCC(N)=O)NC(=O)[C@H](CC(C)C)NC(=O)[C@H](CCCNC(=N)N)NC(=O)[C@H](CO)NC(=O)[C@H](CC(C)C)NC(=O)[C@H](CCC(=O)O)NC(=O)[C@H](CO)NC(=O)[C@@H](NC(=O)[C@H](Cc1ccccc1)NC(=O)[C@@H](NC(=O)CNC(=O)[C@H](CC(=O)O)NC(=O)[C@H](CO)NC(=O)[C@@H](N)Cc1c[nH]cn1)[C@@H](C)O)[C@@H](C)O)C(=O)N[C@H](C(N)=O)C(C)C | Sctr | cAMP production, agonist | CHO-SecR | 30 min, 37 °C, together with: 1 mM IBMX | – | 0.2 ± 0.04
CC(C)[C@H](NC(=O)[C@@H](N)Cc1c[nH]cn1)C(=O)NCC(=O)NCC(=O)NCC(=O)N[C@@H](CC(=O)O)C(=O)N[C@@H](Cc1ccc(OS(=O)(=O)O)cc1)C(=O)N1CCC[C@H]1C(=O)N1CCC[C@H]1C(=O)N1CCC[C@H]1C(=O)NCC(=O)N[C@@H](C)C(=O)N[C@@H](CC(N)=O)C(=O)N1CCC[C@H]1C(=O)N[C@@H](CCCCN)C(=O)N[C@@H](Cc1c[nH]cn1)C(=O)N[C@@H](CC(=O)O)C(=O)N1CCC[C@H]1C(=O)N1CCC[C@H]1C(=O)N1CCC[C@H]1C(=O)N[C@@H](CCCNC(=N)N)C(=O)O | Receptor kinase-like protein Xa21 (XA21, Oryza sativa subsp. indica, UniProt Q1MX30) | ROS production, agonist, L-012 chemiluminescence | Oryza sativa, Kitaake Ubi::XA21, leaves | 3 h | – | ~20
COc1cc(-c2cnc3nc2NCCCNS(=O)(=O)c2cc(ccc2OC)N3)ccc1F | EPHA5 (Homo sapiens, UniProt P54756) | target engagement in cells, BRET | – | – | – | 500
C/C=C/CC(=O)O | FFAR2 | agonist | – | – | – | 110000
C[C@H](N)C(=O)N[C@@H](Cc1c[nH]c2ccccc12)C(=O)N[C@@H](CC(=O)O)C(=O)N[C@@H](C)C(=O)N[C@@H](C)C(=O)N[C@H](C)C(=O)O | Sctr | cAMP, agonist, TR-FRET | – | – | – | 57000
CCCC[C@H](NC(=O)[C@H](Cc1ccccc1)NC(=O)[C@H](Cc1c[nH]cn1)NC(=O)CCNC(=O)[C@@H](NC(=O)[C@H](C)NC(=O)[C@H](Cc1c[nH]c2ccccc12)NC(=O)[C@H](CC(N)=O)NC(=O)[C@@H](Cc1ccc(O)cc1)NC(=O)[C@@H](CO)NC(=O)[C@H](CO)NC(=O)[C@H](N)CO)C(C)C)C(N)=O | GRPR | inositol phosphate generation, agonist | BALB/3T3 transfected with human GRPR | 45 min, 37 °C | reference: 1 µM GRP | 1.99 ± 0.09
CC[C@H](C)[C@H](NC(=O)[C@@H]1CCCN1C(=O)CNC(=O)[C@H](Cc1ccccc1)NC(=O)[C@H](CC(N)=O)NC(=O)[C@H](CC(N)=O)NC(=O)[C@H](CO)NC(=O)[C@H](CO)NC(=O)[C@H](Cc1c[nH]cn1)NC(=O)[C@@H](NC(=O)[C@H](CC(C)C)NC(=O)[C@H](Cc1ccccc1)NC(=O)[C@H](CC(N)=O)NC(=O)[C@H](C)NC(=O)[C@H](CC(C)C)NC(=O)[C@H](CCCNC(=N)N)NC(=O)[C@H](CCC(N)=O)NC(=O)[C@@H](NC(=O)[C@H](C)NC(=O)[C@@H]1CSSC[C@H](NC(=O)[C@@H](N)CCCCN)C(=O)N[C@@H](CC(N)=O)C(=O)N[C@@H]([C@@H](C)O)C(=O)N[C@@H](C)C(=O)N[C@@H]([C@@H](C)O)C(=O)N1)[C@@H](C)O)C(C)C)C(=O)N[C@@H](CC(C)C)C(=O)N1CCC[C@H]1C(=O)N1CCC[C@H]1C(=O)N[C@H](C(=O)N[C@@H](CC(N)=O)C(=O)N[C@H](C(=O)NCC(=O)N[C@@H](CO)C(=O)N[C@@H](CC(N)=O)C(=O)N[C@H](C(=O)N[C@@H](Cc1ccc(O)cc1)C(N)=O)[C@@H](C)O)C(C)C)[C@@H](C)O | Calcitonin receptor (Calcr, Mus musculus, UniProt Q60755) | cAMP production, agonist | COS-7 transfected with mouse CTR | 15 min, 37 °C, together with: 1 mM IBMX | – | 7.76
O=C(O)/C=C/c1cccc(NC(=O)c2cc(-c3cccc(F)c3)ccc2F)c1 | PTGER2 (Homo sapiens, UniProt P43116) | calcium signal, agonist, fluorescence | – | – | – | 6.31
CC(C)C[C@H](NC(=O)[C@H](CCCNC(=N)N)NC(=O)[C@H](C)NC(=O)[C@H](CO)NC(=O)[C@H](CC(=O)O)NC(=O)[C@H](CCC(N)=O)NC(=O)[C@H](CC(C)C)NC(=O)[C@H](CCCNC(=N)N)NC(=O)[C@H](CO)NC(=O)[C@H](CC(C)C)NC(=O)[C@H](CCC(=O)O)NC(=O)[C@H](CO)NC(=O)[C@@H](NC(=O)[C@H](Cc1ccccc1)NC(=O)[C@@H](NC(=O)CNC(=O)[C@H](CC(=O)O)NC(=O)[C@H](CO)NC(=O)[C@@H](N)Cc1c[nH]cn1)[C@@H](C)O)[C@@H](C)O)C(=O)N[C@@H](CCC(N)=O)C(=O)N[C@@H](CCCNC(=N)N)C(=O)N[C@@H](CC(C)C)C(=O)N[C@@H](CC(C)C)C(=O)N[C@@H](CCC(N)=O)C(=O)NCC(=O)N[C@@H](C)C(=O)N[C@H](C(N)=O)C(C)C | Sctr | cAMP production, agonist | CHO-SecR | 30 min, 37 °C, together with: 1 mM IBMX | – | 1.3 ± 0.2
CC(C)CC(=O)O | FFAR2 | agonist | – | – | – | 759000
CSCC[C@H](NC(=O)[C@H](CC(C)C)NC(=O)[C@H](Cc1c[nH]cn1)NC(=O)[C@@H](C)NC(=O)[C@@H](NC(=O)[C@H](C)NC(=O)[C@H](Cc1c[nH]c2ccccc12)NC(=O)[C@H](CCC(N)=O)NC(=O)[C@H](CC(N)=O)NC(=O)CNC(=O)[C@H](CC(C)C)NC(=O)[C@H](CCCNC(=N)N)NC(=O)[C@H](CCC(N)=O)NC(=O)[C@@H]1CCC(=O)N1)C(C)C)C(N)=O | GRPR | inositol phosphate formation, agonist | HuTu80 | 45 min, 37 °C | reference: 1 µM GRP | 1.2 ± 0.08
C=CC(=O)O | FFAR2 | agonist | – | – | – | 126000
CC(C)C[C@@H]1NC(=O)[C@H](Cc2c[nH]cn2)NC(=O)[C@@H](C)NC(=O)[C@H](C(C)C)NC(=O)[C@H](C)NC(=O)[C@H](Cc2c[nH]c3ccccc23)NC(=O)[C@H](CCC(N)=O)NC(=O)[C@H](N)CSSC[C@@H](C(N)=O)NC1=O | GRPR | inositol phosphate, agonist | – | – | – | 100
COc1cc(CNC(=O)CCCC/C=C/C(C)C)ccc1NS(C)(=O)=O | TRPV1 (Homo sapiens, UniProt Q8NER1) | calcium signal, agonist | – | – | – | > 10000
CSCC[C@H](NC(=O)[C@H](CO)NC(=O)[C@H](Cc1ccc(O)cc1)NC(=O)[C@@H](N)CO)C(=O)N[C@@H](CCC(=O)O)C(=O)N[C@@H](Cc1cnc[nH]1)C(=O)N[C@@H](Cc1ccccc1)C(=O)N[C@@H](CCCNC(=N)N)C(=O)N[C@@H](Cc1c[nH]c2ccccc12)C(=O)NCC(=O)N[C@@H](CCCCN)C(=O)N1CCC[C@H]1C(=O)N[C@H](C(=O)NCC(=O)N[C@@H](CCCCN)C(=O)N[C@@H](CCCCN)C(=O)N[C@@H](CCCNC(=N)N)C(=O)N[C@@H](CCCNC(=N)N)C(=O)N1CCC[C@H]1C(=O)N[C@H](C(=O)N[C@@H](CCCCN)C(=O)N[C@H](C(=O)N[C@@H](Cc1ccc(O)cc1)C(=O)N1CCC[C@H]1C(=O)N[C@@H](CC(N)=O)C(=O)NCC(=O)N[C@@H](C)C(=O)N[C@@H](CCC(=O)O)C(=O)N[C@@H](CC(=O)O)C(=O)N[C@@H](CCC(=O)O)C(=O)N[C@@H](CO)C(=O)N[C@@H](C)C(=O)N[C@@H](CCC(=O)O)C(=O)N[C@@H](C)C(=O)N[C@@H](Cc1ccccc1)C(=O)N1CCC[C@H]1C(=O)N[C@@H](CC(C)C)C(=O)N[C@@H](CCC(=O)O)C(=O)N[C@@H](Cc1ccccc1)C(=O)O)C(C)C)C(C)C)C(C)C | GPR139 (Homo sapiens, UniProt Q6DWJ6) | calcium mobilisation, agonist, Fluo-4 | CHO transfected | mean of triplicates | – | 2060

Excerpt of the above:
Compound | target | test | system | conditions | how to read | EC50 [nM]
O=C(O)/C=C/c1cccc(NC(=O)c2cc(-c3cccc(F)c3)ccc2F)c1 | PTGER2 (Homo sapiens, UniProt P43116) | calcium signal, agonist, fluorescence | – | – | – | 6.31
C=CC(=O)O | FFAR2 | agonist | – | – | – | 126000
COc1cc(-c2cnc3nc2NCCCNS(=O)(=O)c2cc(ccc2OC)N3)ccc1F | EPHA5 (Homo sapiens, UniProt P54756) | target engagement in cells, BRET | – | – | – | 500
